Measured values gathered from unrelated publications.
Lines come from different studies, so protocols differ. Several values in a cell are separate wells, animals, samples, runs or records. ± gives the spread as reported.

SMILES = COc1cccc(OC)c1-c1cc(C(=O)NC2(C(=O)O)C3CC4CC(C3)CC2C4)nn1-c1ccc(C(=O)N(C)CCOCCN(C)C(=O)[C@H](CCCCNC(=O)[C@H](CC(C)C)NC(=O)C2OC2C(=O)O)NC(=O)CN2CCN(CC(=O)[O-])CCN(CC(=O)[O-])CCN(CC(=O)[O-])CC2)cc1C(C)C.[177Lu+3] (mixture of isomers); test system = mouse, HT-29 xenograft, lung; setting = 168 h post injection; measurement = tissue uptake; value = 0.45 %ID/g
SMILES = C=C[C@]1(C)C[C@@H](OC(=O)CSc2ccc(NC(=O)c3ccco3)cc2)[C@]2(C)[C@H](C)CC[C@]3(CCC(=O)[C@H]32)[C@@H](C)[C@@H]1O; test system = chickens; setting = 5 mg/kg, 24 h; measurement = %T>MIC; value = 89.5%
SMILES = COc1ccc(C(=O)c2c(C(=O)NCCCN(C)C)oc3ccc(Cl)cc3c2=O)cc1OC; test system = male C57BL/6 mice, brain; setting = intravenous, 1 mg/kg; measurement = AUC extrapolated fraction; value = 10%
SMILES = O=c1c(O)c(-c2ccc(N(c3ccccc3)c3ccccc3)cc2)oc2cc3ccccc3cc12; test system = DMSO; setting = added: visible light 445-465 nm; measurement = CO yield; value = 1.02
SMILES = O=C(O)CCCOc1ccc([18F])cc1-c1cc(-c2ccccc2C(F)(F)F)n(-c2ccccc2)n1; test = OLINDA/EXM from mouse data, item: Upper large intestine wall; test system = human adult; measurement = absorbed dose; value = 14.8 µGy/MBq
SMILES = O=C(Nc1cnccc1-c1ccc([18F])nc1)c1ccnc(NC(=O)C2CC2)c1; test = PET imaging; test system = FVB/NJ mice, both sexes, liver; setting = intravenous, 60 min post-injection, P-gp inhibited, added: tariquidar 15 mg/kg iv, 2 h before; measurement = SUV; value = 8.16
SMILES = CNCc1ccc(-c2cc(=O)c3ccc4[nH]c(C(F)(F)F)nc4c3o2)cc1; test system = ICR mice, brain; setting = oral, 5 mg/kg; measurement = AUC; value = 35.8 ng·h/mL
SMILES = C=CC(=O)Nc1cc(Nc2nccc(-c3cn(C)c4ccccc34)n2)c(OC)cc1N(C)CCNC; test system = human, dried blood spots; setting = 270 ng/mL, 2 h, -80 °C, high QC level; measurement = remaining compound; value = 100%
SMILES = O=C(NS(=O)(=O)c1cccs1)c1cc2ccccc2n1Cc1ccc(Br)c2ccccc12; test system = KM mouse, chronic hyperuricaemia model; setting = dose not given, day 29; measurement = body weight; value = 38 g and 36.4 g and 40.2 g and 38.8 g and 39.4 g and 39.2 g
SMILES = C=C(NC(=O)c1csc(-c2nc3c(cc2O)-c2nc(cs2)C(=O)NC(C(C)O)C(=O)NC(=C(C)OC)c2nc(cs2)C(=O)NC2c4nc(cs4)C(=O)NC(COC(=O)c4c5c6c(cccc6n4O)COC(=O)C(OC4CC(C)(O)C(N(C)C)C(C)O4)C2OC5)c2nc-3cs2)n1)C(N)=O (stereo not drawn); test system = female Sprague-Dawley rat, plasma; setting = intravenous, 18 mg/kg, single dose, infusion; measurement = Tmax; value = 4.8 min
SMILES = CC[C@H](C)[C@H](NC(=O)[C@H](CC(N)=O)NC(=O)[C@@H](NC(=O)[C@H](Cc1ccccc1)NC(=O)[C@H](C)NC(=O)[C@H](Cc1ccccc1)NC(=O)[C@@H]1CCCN1C(=O)[C@H](C)NC(=O)[C@@H](NC(=O)[C@H](CO)NC(=O)[C@H](Cc1ccccc1)NC(=O)[C@H](CCCNC(=N)N)NC(=O)[C@H](CCCNC(=N)N)NC(=O)[C@@H](N)CC(C)C)[C@@H](C)O)[C@@H](C)CC)C(=O)N[C@@H](CC(N)=O)C(=O)N[C@@H](CC(N)=O)C(=O)N[C@H](C(=O)N[C@H](C(=O)N[C@@H](CC(N)=O)C(=O)N[C@@H](Cc1ccccc1)C(N)=O)[C@@H](C)CC)C(C)C; test = near-infrared fluorescence imaging; test system = mouse; setting = IRDye800-labelled; measurement = persistence at injection site; value = ≥ 10 days
SMILES = Cc1ccc(CN2C(=O)/C(=N\c3ccc(Cl)cc3Br)c3ccccc32)cc1; test system = mouse, blood; setting = 150 mg/kg; measurement = MCV; value = 46.03 ± 0.04 fL

Excerpt of the above:
SMILES = Cc1ccc(CN2C(=O)/C(=N\c3ccc(Cl)cc3Br)c3ccccc32)cc1; test system = mouse, blood; setting = 150 mg/kg; measurement = MCV; value = 46.03 ± 0.04 fL
